Experimental data of several laboratories.
A part holds a random share of what one study measured. Substitutions count along the parent as printed.
UniProt Q94JM3, sequence (whole entry, looked up): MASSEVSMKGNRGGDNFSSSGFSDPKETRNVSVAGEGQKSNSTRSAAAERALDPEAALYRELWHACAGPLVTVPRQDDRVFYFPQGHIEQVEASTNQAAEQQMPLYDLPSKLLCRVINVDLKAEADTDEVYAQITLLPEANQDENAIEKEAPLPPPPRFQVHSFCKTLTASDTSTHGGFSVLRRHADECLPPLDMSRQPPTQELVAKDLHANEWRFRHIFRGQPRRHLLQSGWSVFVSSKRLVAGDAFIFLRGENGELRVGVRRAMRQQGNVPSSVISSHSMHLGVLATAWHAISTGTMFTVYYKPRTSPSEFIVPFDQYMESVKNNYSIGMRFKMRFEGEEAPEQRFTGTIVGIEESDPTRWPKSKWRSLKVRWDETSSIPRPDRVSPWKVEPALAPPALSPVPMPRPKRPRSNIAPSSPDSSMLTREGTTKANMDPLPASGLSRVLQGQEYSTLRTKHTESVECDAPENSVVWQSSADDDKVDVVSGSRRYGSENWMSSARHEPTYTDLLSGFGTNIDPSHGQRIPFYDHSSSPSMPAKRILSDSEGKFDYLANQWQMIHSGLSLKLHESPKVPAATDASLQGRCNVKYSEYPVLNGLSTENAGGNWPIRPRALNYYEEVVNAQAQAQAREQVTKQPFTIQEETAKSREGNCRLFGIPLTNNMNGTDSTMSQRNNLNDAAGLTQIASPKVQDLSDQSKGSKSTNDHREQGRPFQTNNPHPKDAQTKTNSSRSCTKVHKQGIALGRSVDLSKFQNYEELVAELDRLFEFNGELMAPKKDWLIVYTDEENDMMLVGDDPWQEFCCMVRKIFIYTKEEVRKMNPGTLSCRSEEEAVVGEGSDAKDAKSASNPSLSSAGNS
UniProt Q9ZPY6, sequence (whole entry, looked up): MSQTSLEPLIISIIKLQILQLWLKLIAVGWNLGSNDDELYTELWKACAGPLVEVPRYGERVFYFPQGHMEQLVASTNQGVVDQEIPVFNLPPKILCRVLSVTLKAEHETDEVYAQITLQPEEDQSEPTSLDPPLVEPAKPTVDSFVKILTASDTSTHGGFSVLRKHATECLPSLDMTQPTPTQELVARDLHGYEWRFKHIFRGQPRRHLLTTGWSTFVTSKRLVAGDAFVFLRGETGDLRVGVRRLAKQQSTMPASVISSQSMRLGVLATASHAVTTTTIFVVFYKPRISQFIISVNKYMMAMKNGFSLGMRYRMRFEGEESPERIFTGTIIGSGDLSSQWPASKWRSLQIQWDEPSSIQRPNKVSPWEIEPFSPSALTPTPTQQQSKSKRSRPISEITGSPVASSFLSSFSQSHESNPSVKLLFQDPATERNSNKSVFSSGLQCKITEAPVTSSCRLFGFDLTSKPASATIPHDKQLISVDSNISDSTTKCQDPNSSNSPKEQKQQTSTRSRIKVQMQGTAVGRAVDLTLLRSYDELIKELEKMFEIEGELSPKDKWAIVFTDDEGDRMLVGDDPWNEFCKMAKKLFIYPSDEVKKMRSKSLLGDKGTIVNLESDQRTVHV
UniProt Q38824, sequence (whole entry, looked up): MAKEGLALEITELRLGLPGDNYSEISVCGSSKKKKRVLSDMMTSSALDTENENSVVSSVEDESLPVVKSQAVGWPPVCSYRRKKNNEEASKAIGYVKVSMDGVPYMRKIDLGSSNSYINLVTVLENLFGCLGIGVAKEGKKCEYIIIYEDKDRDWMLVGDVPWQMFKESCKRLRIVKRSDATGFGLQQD
UniProt Q8H174, sequence (whole entry, looked up): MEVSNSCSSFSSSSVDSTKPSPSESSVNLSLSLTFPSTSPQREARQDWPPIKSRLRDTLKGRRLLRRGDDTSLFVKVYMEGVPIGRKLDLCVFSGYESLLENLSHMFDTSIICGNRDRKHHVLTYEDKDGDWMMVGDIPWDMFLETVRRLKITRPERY
UniProt O24409, sequence (whole entry, looked up): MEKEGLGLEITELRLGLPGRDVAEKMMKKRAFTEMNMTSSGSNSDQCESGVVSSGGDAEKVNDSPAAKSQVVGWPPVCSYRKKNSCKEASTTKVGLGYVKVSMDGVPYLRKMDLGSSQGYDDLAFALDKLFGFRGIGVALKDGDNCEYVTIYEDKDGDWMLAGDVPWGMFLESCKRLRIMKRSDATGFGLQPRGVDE

Series 1 — technique: competition protein-binding microarray; molecule type: double-stranded DNA, one strand shown; matrix: in vitro; concentration: 2 µM; together with: Cbf1 competitor, 0.05 µM; direction: higher = stronger binding; constant ends, left off below: … GTCTTGATTCGCTTGACGCTGCTG
Target: Phosphate system positive regulatory protein PHO4, full length, GST-tagged (PHO4, Saccharomyces cerevisiae, UniProt P07270, residues 1-312)
Notes: whole 60-bp probe, lowest competitor level
Construct (chain): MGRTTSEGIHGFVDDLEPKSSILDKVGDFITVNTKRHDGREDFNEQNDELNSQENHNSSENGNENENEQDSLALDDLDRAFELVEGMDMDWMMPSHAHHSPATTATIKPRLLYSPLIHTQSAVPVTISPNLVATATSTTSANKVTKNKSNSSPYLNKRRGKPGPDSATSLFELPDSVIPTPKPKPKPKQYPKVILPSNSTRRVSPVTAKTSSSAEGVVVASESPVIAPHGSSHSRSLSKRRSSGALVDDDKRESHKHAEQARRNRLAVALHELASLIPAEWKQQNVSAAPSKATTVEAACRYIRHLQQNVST
Strand | fluorescence intensity [a.u.]
TGCGCAACAACTTTTCACGTGCACTTATGTCTAGAA | 13400
CGGGGTTAAGTTTGTCACAGGACTTGCTTGCAGCAG | 3370
CATACCCAACCTTGTTCAGTGGGTGAAGATATTTGT | 3340
CTTTCCCGATCTTTTCACGTGCGCTTAGCACATTTG | 16000
TTGGTCCAGTTCTCGCCCGTGATGGGAGAACAAGTA | 5660
TGGTCCTAAACTCACCACGTGAAATAGGTTGATAAT | 13900
CGGGGTTAAGTTTGTCACTTCACTTGCTTGCAGCAG | 3510
CCGGATAATCTACATCATGTGGTACGTTAACGATGT | 8980
CTCTTATCGGTATTACTTTCTTATCAATGAAAAATT | 4540
CAGCCCAGGTCCAATGTCGTGCAAAACGCAGATCCT | 6980
CGTCCTAGAGATTACCACGTGTTTTCCATGAGGAAG | 15900
CATTGCCGGCCCGGCCACGTGCAAAGTCTGGTTGAG | 19000
TCTGTATGGGTTTGTCATGCTGCTCTGGCCCTTTGT | 4580
CTTTCCCGATCTTGTCGAGTGGGTGTAGCACATTTG | 4720
ACTTACTACAAGCTCAACGTGACTCGTTTGGTGTTC | 11500
CTGTAGACTCAGAGTCAGCTGATTGTTGGGTATGTG | 3170
AAAGCGGTAATTTTTCACGTGAGCTCACATATCTAT | 9790
CGGGGTTAAGTTTGGTTAGTGGGTGGCTTGCAGCAG | 4430
CGTCCTAGTGATTGGACTGTGGGTGCCATGAGGAAG | 6380

Series 2 — target: CCND3, cyclin fold, Cln2 fusion (human); technique: yeast growth competition, sequencing; matrix: yeast; notes: weak parent motif; baseline: not given; direction: higher = stronger binding
Starting sequence: MICAL3 docking peptide (human); LQLRRQLSFSEDS
Variant | normalised enrichment score
LQDRRQLSFSEDS [L3D] | 0.0993
LQLRRQWSFSEDS [L7W] | 0.223
LQLRRQLSFSEGS [D12G] | -0.0549
LQLRRQLSFTEDS [S10T] | -0.0813
LQLRRQSSFSEDS [L7S] | 0.0657
LQLRRQLSFREDS [S10R] | 0.333
LQLRRCLSFSEDS [Q6C] | 0.26
LQLGRQLSFSEDS [R4G] | -0.323
LQLRRQLSFSERS [D12R] | 0.173
LQLRRQLSWSEDS [F9W] | -0.156
LQLRRQLTFSEDS [S8T] | -0.0499
LQLPRQLSFSEDS [R4P] | 0.213
LQLRRQLSFSEIS [D12I] | 0.283
LQLRYQLSFSEDS [R5Y] | 0.228
LQLRPQLSFSEDS [R5P] | -0.107
LQLARQLSFSEDS [R4A] | 0.0835
LQLRRQLSTSEDS [F9T] | -0.111
LQLRRQLSFNEDS [S10N] | 0.0946
LQLRRQLSISEDS [F9I] | -0.258

Series 3 — Molecule: B1 (IAA4); technique: two-hybrid; direction: higher = firmer interaction
B1: IAA4 (Arabidopsis thaliana, UniProt P33077); chain MEKVDVYDELVNLKATELRLGLPGTEETVSCGKSNKRVLPEATEKEIESTGKTETASPPKAQIVGWPPVRSYRKNNVQTKKSESEGQGNYVKVSMDGAPYLRKIDLTMYKQYPELMKSLENMFKFSVGEYFEREGYKGSDFVPTYEDKDGDWMLVGDVPWEMFVSSCKRLRIMKGSEVKGLGCGGL
partner | how to read | positive tests
IAA31 (Arabidopsis thaliana, UniProt Q8H174) | baseline: out of 2 tests | 0
ARF2 727-859 (Arabidopsis thaliana, UniProt Q94JM3) | baseline: out of 4 tests | 1
IAA19 (Arabidopsis thaliana, UniProt O24409) | baseline: out of 4 tests | 4
IAA9 (Arabidopsis thaliana, UniProt Q38827) | baseline: out of 4 tests | 4
IAA6 (Arabidopsis thaliana, UniProt Q38824) | baseline: out of 4 tests | 0
ARF11 500-622 (Arabidopsis thaliana, UniProt Q9ZPY6) | baseline: out of 4 tests | 0

Series 4 — technique: DHFR PCA, deep sequencing; matrix: yeast; together with: (+)-ABA 1.4 µM; baseline: wild-type fitted maximum; direction: higher = stronger binding
Target: ABI1, truncated, D143A, DHFR fusion (Arabidopsis thaliana)
Notes: methotrexate growth selection, single substitutions
Starting sequence: PYL1, truncated, DHFR fusion (Arabidopsis thaliana); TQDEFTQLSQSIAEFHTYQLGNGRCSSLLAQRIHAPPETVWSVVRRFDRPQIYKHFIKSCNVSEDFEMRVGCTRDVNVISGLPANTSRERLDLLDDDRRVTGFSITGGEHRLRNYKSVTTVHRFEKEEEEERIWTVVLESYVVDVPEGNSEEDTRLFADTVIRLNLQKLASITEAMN; partner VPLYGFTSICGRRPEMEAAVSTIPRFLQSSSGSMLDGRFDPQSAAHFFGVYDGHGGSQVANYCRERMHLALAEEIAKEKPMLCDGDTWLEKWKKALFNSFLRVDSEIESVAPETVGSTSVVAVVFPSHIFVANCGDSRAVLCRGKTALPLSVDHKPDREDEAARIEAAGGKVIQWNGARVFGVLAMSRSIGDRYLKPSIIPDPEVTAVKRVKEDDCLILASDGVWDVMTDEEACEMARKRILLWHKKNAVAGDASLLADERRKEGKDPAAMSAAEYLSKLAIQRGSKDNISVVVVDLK
Variant | relative binding score [%]
G71E | -0.931
V78F | 90.5
C25S | 6.29
D65I | -6.29
F5I | 37.5
G107H | 12.8
S63N | 50.8
N22I | 55
Y53S | -6.12
C25A | 51.9
L8Q | 24.5
A35P | -42.3
V40T | 11.9
T119R | -2.35
D96P | -7.69
N85C | 57.3
P37Y | 13.4
G108T | -13
Q2M | 64.3
I133F | 43.6

For quick reference, copied from above (series 1):
Strand | fluorescence intensity [a.u.]
CCGGATAATCTACATCATGTGGTACGTTAACGATGT | 8980
CTCTTATCGGTATTACTTTCTTATCAATGAAAAATT | 4540
CAGCCCAGGTCCAATGTCGTGCAAAACGCAGATCCT | 6980
CGTCCTAGAGATTACCACGTGTTTTCCATGAGGAAG | 15900
CATTGCCGGCCCGGCCACGTGCAAAGTCTGGTTGAG | 19000
TCTGTATGGGTTTGTCATGCTGCTCTGGCCCTTTGT | 4580
CTTTCCCGATCTTGTCGAGTGGGTGTAGCACATTTG | 4720
ACTTACTACAAGCTCAACGTGACTCGTTTGGTGTTC | 11500
CTGTAGACTCAGAGTCAGCTGATTGTTGGGTATGTG | 3170
